Literature values as cited in several papers.
Protocols differ between the studies behind these lines. Numbers after ± are the reported error. In brackets after ≈: the same amount, converted by molar mass.

Substance	assay	system	setting	scale	measurement	result
O=C1c2cccc3c2[C@H](CCC3)CN1[C@@H]1CN2CCC1CC2	–	healthy volunteers, plasma	oral, dose not given, netupitant-palonosetron combination, added: oral contraceptives	–	CL/F	14.5 L/h
C[C@@H]1CCO[C@H]2Cn3cc(C(=O)NCc4ccc(F)cc4F)c(=O)c(O)c3C(=O)N12	–	healthy, mostly White or Black	50 mg, single dose, fasted, added: abacavir 600 mg, lamivudine 300 mg	–	AUC(0-inf)	47100 ng·h/mL
CN1CCN(c2ccc3nc(-c4c(N)c5c(F)cccc5[nH]c4=O)[nH]c3c2)CC1	–	human	oral, 500 mg once daily, day 15	–	AUC(0-t)	4340 ± 3780 ng·h/mL
NC(=O)N1c2ccccc2C[C@H](O)c2ccccc21	–	mouse, latrunculin A seizures	po, 100 mg/kg of eslicarbazepine acetate, 60 min	–	brain concentration	36.4 nmol/g
O=C(Nc1ccc(Cl)cc1)Nc1ccc(Cl)c(Cl)c1	–	juvenile Chinook salmon, whole body wet weight	concentration not given, field-collected	–	maximum whole-body concentration	6.5 ng/g
Cc1cc(Nc2cc3ncccc3c(N[C@@H]3C[C@H]4CC[C@@H](C3)N4CCC#N)n2)n[nH]1	–	humans	once daily, multiple ascending dose	–	highest well tolerated dose	300 mg
C[C@H](Cn1cnc2c(N)ncnc21)OCP(=O)(O)O	–	human	official monograph data	–	half-life	~32 h
CC[C@@H]1C(=O)N(C)c2cnc(Nc3ccc(C(=O)NC4CCN(C)CC4)cc3OC)nc2N1C1CCCC1	–	human patients	dose not given	–	volume of distribution	1000 L
O=c1c(O)c(-c2ccc(O)c(O)c2)oc2cc(O)ccc12	–	mouse, multiple organs	oral, diet, 0.05% in diet, 9 months	–	histopathology	not toxic
CCCCC1C(=O)N(c2ccccc2)N(c2ccccc2)C1=O	–	plasma	concentration not given	–	Cmax	438 µM
CCCS(=O)(=O)Nc1ccc(F)c(C(=O)c2c[nH]c3ncc(-c4ccc(Cl)cc4)cc23)c1F	–	human	population PK, multiple dose, percentile range	–	half-life	30 to 120 h
CO[C@H]1C[C@@H]2CC[C@@H](C)[C@@](O)(O2)C(=O)C(=O)N2CCCC[C@H]2C(=O)O[C@H]([C@H](C)C[C@@H]2CC[C@@H](OCCO)[C@H](OC)C2)CC(=O)[C@H](C)/C=C(\C)[C@@H](O)[C@@H](OC)C(=O)[C@H](C)C[C@H](C)/C=C/C=C/C=C/1C	–	human transplant recipients	2.5 mg/day, one month co-treatment	reference: healthy volunteers, literature	rosuvastatin AUC	~2.8 fold
COc1cccc(-c2ccc(NC(=O)C3=C(C(=O)O)CCC3)c(F)c2)c1	–	human, clinical database	–	–	well-tolerated daily dose	< 70 mg
O=C(O)CNC(=O)c1ccccc1[131I]	–	normal rat, lung	10 min, added: co-injected 99mTc-1	–	percent injected dose	0.5 ± 0.2 %ID
Cc1c(O)cccc1C(=O)N[C@@H](CSc1ccccc1)[C@H](O)CN1C[C@H]2CCCC[C@H]2C[C@H]1C(=O)NC(C)(C)C	–	plasma	concentration not given	–	Cmax	6 µM
COc1ccnc(C[S+]([O-])c2nc3ccc(OC(F)F)cc3[nH]2)c1OC (stereo not shown)	–	nonobese children, 6–11 years	oral	–	lag time	0.8 h
O=c1n(CCCN2CCN(c3cccc(Cl)c3)CC2)nc2ccccn12	–	human	oral, 90 mg, from 30 min	–	QTcB prolongation	> 20 ms
CC(C)=CCC[C@]1(C)[C@@H](CC=C(C)C)C[C@@]2(CC=C(C)C)C(=O)[C@]1(C(=O)C(C)C)C(=O)C(CC=C(C)C)=C2O	–	plasma	concentration not given	–	Cmax	0.23 µM
C=C1CC[C@@H]2[C@](C)(CO)[C@H](O)CC[C@@]2(C)[C@@H]1C/C=C1/C(=O)OC[C@H]1O	–	rat, jejunum	without cyclodextrin	–	effective permeability	57 ×10⁻⁶ cm/s

Substance	assay	system	setting	scale	measurement	result
CC[C@@H](C)[C@@H](NC(=O)[C@@H](CCCCN)NC(=O)[C@@H](CCCCN)NC(=O)[C@@H](Cc1ccccc1)NC(=O)[C@@H](CC(C)C)NC(=O)[C@@H](CCCCN)NC(=O)[C@H](N)CCCCN)C(=O)N[C@H](CC(C)C)C(=O)N[C@H](CCCCN)C(=O)N[C@H](Cc1ccc(O)cc1)C(=O)N[C@@H](CC(C)C)C(N)=O	–	horse erythrocytes 5 % v/v	150 µM	–	hemolysis	1 ± 1.2%
GVVIA	filtration	peptide, sodium phosphate buffer	pH 7.4	–	solubility	156 ± 33 µM
Nc1ccn([C@@H]2CS[C@H](CO)O2)c(=O)n1	–	octanol-water	–	–	logP	-1.3
COc1cc(/C=C/c2ccc(O)cc2)cc(OC)c1	–	rat	2-hydroxypropyl-β-cyclodextrin solution	–	oral bioavailability	~60%
CC[C@H](C)CCCCC(=O)N[C@@H](CCN)C(=O)N[C@H](C(=O)N[C@@H](CCN)C(=O)N[C@H]1CCNC(=O)[C@H]([C@@H](C)O)NC(=O)[C@H](CCN)NC(=O)[C@H](CCN)NC(=O)[C@H](CC(C)C)NC(=O)[C@@H](Cc2ccccc2)NC(=O)[C@H](CCN)NC1=O)[C@@H](C)O	–	critically ill human patients	intravenous, dose not given, population PK model	–	volume of distribution	34.4 L
CO[C@@]12[C@H](COC(N)=O)C3=C(C(=O)C(C)=C(N)C3=O)N1C[C@@H]1N[C@@H]12	–	plasma	concentration not given	–	Cmax	7.1 µM
Cc1ccccc1-c1cc(N2CCN(C)CC2)ncc1N(C)C(=O)C(C)(C)c1cc(C(F)(F)F)cc(C(F)(F)F)c1	–	healthy volunteers, plasma	oral, dose not given, netupitant-palonosetron combination, added: oral contraceptives	–	CL/F	25.1 L/h
CN1Cc2c(Cl)cc(Cl)cc2[C@H](c2cccc(S(=O)(=O)NCCOCCOCCNC(=O)NCCCCNC(=O)NCCOCCOCCNS(=O)(=O)c3cccc([C@@H]4CN(C)Cc5c(Cl)cc(Cl)cc54)c3)c2)C1	–	human	oral, 180 mg single or 15 to 90 mg twice daily, 7 days	–	serum concentration	< 0.5 ng/mL
CC[C@@H]1CN(C(=O)NCC(F)(F)F)C[C@@H]1c1cnc2cnc3[nH]ccc3n12	population PK model	patients vs healthy volunteers	dose not given	reference: healthy volunteers	clearance reduction	~25%
liraglutide	–	human, severe hepatic impairment, plasma	100 pM	–	unbound fraction	0.4%
Cc1c(C)c2c(c(C)c1O)CCC(C)(COc1ccc(CC3SC(=O)NC3=O)cc1)O2 (stereo not shown)	rapid equilibrium dialysis	hepatocyte culture medium	–	–	unbound fraction	0.03 to 0.05
C#Cc1cccc(Nc2ncnc3cc(OCCOC)c(OCCOC)cc23)c1	–	children	120 mg/m^2/day, mean of two days	–	absorption rate constant	0.59 h⁻¹
CC(C)(C)NC(=O)[C@@H]1C[C@@H]2CCCC[C@@H]2CN1C[C@@H](O)[C@H](Cc1ccccc1)NC(=O)[C@H](CC(N)=O)NC(=O)c1ccc2ccccc2n1	–	human HIV patients	600 mg single dose, added: grapefruit juice 200 mL	–	CL/F	1.26 L/h
CCS(=O)(=O)N1CC(CC#N)(n2cc(-c3ncnc4[nH]ccc34)cn2)C1	–	healthy humans	concentration not given, added: probenecid	reference: with over without probenecid	AUC(0-inf) ratio	2 fold
CNC(=O)c1cc(Oc2ccc(NC(=O)Nc3ccc(Cl)c(C(F)(F)F)c3)cc2)ccn1	–	patients	dose not given, all grades	–	patients with thrombocytopenia	12%
Cc1c(N(C)CS(=O)(=O)O)c(=O)n(-c2ccccc2)n1C	–	plasma	concentration not given	–	Cmax	34.5 µM
CN1C(C(=O)Nc2ccccn2)=C(O)c2ccccc2S1(=O)=O	–	water	hydrate form	–	aqueous solubility	10 µg/mL (≈ 30.2 µM)
Nc1nc2c(ncn2[C@H]2C[C@@H]3OP(=O)(O)OC[C@H]3O2)c(=O)[nH]1	–	methanol/water	–	–	log Kw	0.66

Some of these lines once more:
Substance	assay	system	setting	scale	measurement	result
Cc1c(O)cccc1C(=O)N[C@@H](CSc1ccccc1)[C@H](O)CN1C[C@H]2CCCC[C@H]2C[C@H]1C(=O)NC(C)(C)C	–	plasma	concentration not given	–	Cmax	6 µM
Nc1nc2c(ncn2[C@H]2C[C@@H]3OP(=O)(O)OC[C@H]3O2)c(=O)[nH]1	–	methanol/water	–	–	log Kw	0.66
Nc1ccn([C@@H]2CS[C@H](CO)O2)c(=O)n1	–	octanol-water	–	–	logP	-1.3
C[C@H](Cn1cnc2c(N)ncnc21)OCP(=O)(O)O	–	human	official monograph data	–	half-life	~32 h
